Results from different studies.
Numbered parts are unrelated; each lists some results of a single study. Values joined by “and” are separate records of one study, mostly repeats; a detail may differ.
UniProt P09769, sequence (whole entry, looked up): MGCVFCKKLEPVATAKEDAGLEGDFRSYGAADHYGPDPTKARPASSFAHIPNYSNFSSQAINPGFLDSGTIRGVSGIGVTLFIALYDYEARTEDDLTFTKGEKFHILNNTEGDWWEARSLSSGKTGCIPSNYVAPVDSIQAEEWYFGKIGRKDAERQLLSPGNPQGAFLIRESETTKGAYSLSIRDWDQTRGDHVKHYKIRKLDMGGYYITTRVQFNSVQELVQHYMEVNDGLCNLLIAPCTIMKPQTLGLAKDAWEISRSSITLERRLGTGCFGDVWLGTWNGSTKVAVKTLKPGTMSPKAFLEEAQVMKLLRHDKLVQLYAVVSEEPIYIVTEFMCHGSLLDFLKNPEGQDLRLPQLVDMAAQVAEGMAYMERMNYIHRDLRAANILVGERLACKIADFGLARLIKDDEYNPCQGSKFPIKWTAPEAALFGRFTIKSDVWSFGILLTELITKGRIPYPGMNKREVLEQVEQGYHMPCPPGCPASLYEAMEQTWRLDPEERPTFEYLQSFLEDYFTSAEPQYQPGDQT
UniProt Q6PHR2, sequence (whole entry, looked up): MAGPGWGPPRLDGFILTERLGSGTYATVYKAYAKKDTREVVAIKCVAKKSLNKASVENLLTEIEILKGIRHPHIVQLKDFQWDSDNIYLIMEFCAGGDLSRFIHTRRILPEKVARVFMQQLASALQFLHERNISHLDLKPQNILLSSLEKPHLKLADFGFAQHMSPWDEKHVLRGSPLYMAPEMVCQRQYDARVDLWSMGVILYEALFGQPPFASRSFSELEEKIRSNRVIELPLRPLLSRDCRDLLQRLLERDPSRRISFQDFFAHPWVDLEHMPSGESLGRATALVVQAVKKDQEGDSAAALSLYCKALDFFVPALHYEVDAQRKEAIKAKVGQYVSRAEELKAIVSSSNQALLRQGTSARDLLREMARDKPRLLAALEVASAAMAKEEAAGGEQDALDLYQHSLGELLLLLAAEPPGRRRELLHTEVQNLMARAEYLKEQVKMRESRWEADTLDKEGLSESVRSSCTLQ
UniProt Q14012, sequence (whole entry, looked up): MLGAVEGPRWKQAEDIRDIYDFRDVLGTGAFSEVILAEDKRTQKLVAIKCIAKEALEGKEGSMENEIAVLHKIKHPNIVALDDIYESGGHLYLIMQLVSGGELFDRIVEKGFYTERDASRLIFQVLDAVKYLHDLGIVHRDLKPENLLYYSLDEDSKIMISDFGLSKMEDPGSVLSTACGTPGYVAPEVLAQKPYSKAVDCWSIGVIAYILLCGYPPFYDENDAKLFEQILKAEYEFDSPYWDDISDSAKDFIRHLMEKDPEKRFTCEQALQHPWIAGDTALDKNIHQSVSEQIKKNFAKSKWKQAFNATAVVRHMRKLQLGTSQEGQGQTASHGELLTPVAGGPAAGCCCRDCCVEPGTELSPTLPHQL

Sample 1 — tested at: 1 µM
SMILES: CCC1(c2cccc(-c3cn(C)nc3C)c2)C2=C(Nc3n[nH]cc31)C(F)C(C)(C)CC2=O (single isomer, unassigned)
The remaining binding was 96% (PIP5K1A (Homo sapiens, UniProt Q99755); binding, competition with immobilised ligand).
The remaining binding was 94% (PIK3CA (Homo sapiens, UniProt P42336, M1043I); binding, competition with immobilised ligand).
The remaining binding was 95% (HASPIN (Homo sapiens, UniProt Q8TF76); binding, competition with immobilised ligand).
The remaining binding was 91% (ULK3 (Homo sapiens, UniProt Q6PHR2); binding, competition with immobilised ligand).
STK25 (Homo sapiens, UniProt O00506); binding, competition with immobilised ligand — remaining binding: 90%.
It gave 37% for remaining binding (MAP3K7 (Homo sapiens, UniProt O43318); kinase binding, KINOMEscan; relative to: DMSO control).
The remaining binding was 81% (HIPK3 (Homo sapiens, UniProt Q9H422); kinase binding, KINOMEscan; relative to: DMSO control).
NEK7 (Homo sapiens, UniProt Q8TDX7); binding, competition with immobilised ligand — remaining binding: 100%.
The remaining binding was 93% (PIKFYVE (Homo sapiens, UniProt Q9Y2I7); binding, competition with immobilised ligand).
The remaining binding was 100% (CDK9 (Homo sapiens, UniProt P50750); kinase binding, KINOMEscan; relative to: DMSO control).
For MAK (Homo sapiens, UniProt P20794); kinase binding, KINOMEscan; relative to: DMSO control: remaining binding read 85%.
For CAMK2D (Homo sapiens, UniProt Q13557); kinase binding, KINOMEscan; relative to: DMSO control: remaining binding read 100%.
The remaining binding was 100% (PRKCD (Homo sapiens, UniProt Q05655); binding, competition with immobilised ligand).
It gave 100% for remaining binding (CAMK2G (Homo sapiens, UniProt Q13555); kinase binding, KINOMEscan; relative to: DMSO control).
It gave 100% for remaining binding (FGR (Homo sapiens, UniProt P09769); kinase binding, KINOMEscan; relative to: DMSO control).
For Tyrosine-protein kinase ABL1, phosphorylated (ABL1, Homo sapiens, UniProt P00519); binding, competition with immobilised ligand: remaining binding read 97%.
It gave 97% for remaining binding (KIT (Homo sapiens, UniProt P10721, A829P); binding, competition with immobilised ligand).
The remaining binding was 86% (SRPK1 (Homo sapiens, UniProt Q96SB4); binding, competition with immobilised ligand).
For FLT3 (Homo sapiens, UniProt P36888, D835V); binding, competition with immobilised ligand: remaining binding read 89%.
For LCK (Homo sapiens, UniProt P06239); kinase binding, KINOMEscan; relative to: DMSO control: remaining binding read 100%.

Sample 2 — effect on: enzyme activity; mode: inhibitor; technique: Ub-TR-FRET; matrix: HECT domain; tested at: 1.235 µM; direction: higher = more chain formation
Target: E3 ubiquitin-protein ligase NEDD4, HECT domain (Homo sapiens, UniProt P46934)
UniProt P46934, sequence (whole entry, looked up): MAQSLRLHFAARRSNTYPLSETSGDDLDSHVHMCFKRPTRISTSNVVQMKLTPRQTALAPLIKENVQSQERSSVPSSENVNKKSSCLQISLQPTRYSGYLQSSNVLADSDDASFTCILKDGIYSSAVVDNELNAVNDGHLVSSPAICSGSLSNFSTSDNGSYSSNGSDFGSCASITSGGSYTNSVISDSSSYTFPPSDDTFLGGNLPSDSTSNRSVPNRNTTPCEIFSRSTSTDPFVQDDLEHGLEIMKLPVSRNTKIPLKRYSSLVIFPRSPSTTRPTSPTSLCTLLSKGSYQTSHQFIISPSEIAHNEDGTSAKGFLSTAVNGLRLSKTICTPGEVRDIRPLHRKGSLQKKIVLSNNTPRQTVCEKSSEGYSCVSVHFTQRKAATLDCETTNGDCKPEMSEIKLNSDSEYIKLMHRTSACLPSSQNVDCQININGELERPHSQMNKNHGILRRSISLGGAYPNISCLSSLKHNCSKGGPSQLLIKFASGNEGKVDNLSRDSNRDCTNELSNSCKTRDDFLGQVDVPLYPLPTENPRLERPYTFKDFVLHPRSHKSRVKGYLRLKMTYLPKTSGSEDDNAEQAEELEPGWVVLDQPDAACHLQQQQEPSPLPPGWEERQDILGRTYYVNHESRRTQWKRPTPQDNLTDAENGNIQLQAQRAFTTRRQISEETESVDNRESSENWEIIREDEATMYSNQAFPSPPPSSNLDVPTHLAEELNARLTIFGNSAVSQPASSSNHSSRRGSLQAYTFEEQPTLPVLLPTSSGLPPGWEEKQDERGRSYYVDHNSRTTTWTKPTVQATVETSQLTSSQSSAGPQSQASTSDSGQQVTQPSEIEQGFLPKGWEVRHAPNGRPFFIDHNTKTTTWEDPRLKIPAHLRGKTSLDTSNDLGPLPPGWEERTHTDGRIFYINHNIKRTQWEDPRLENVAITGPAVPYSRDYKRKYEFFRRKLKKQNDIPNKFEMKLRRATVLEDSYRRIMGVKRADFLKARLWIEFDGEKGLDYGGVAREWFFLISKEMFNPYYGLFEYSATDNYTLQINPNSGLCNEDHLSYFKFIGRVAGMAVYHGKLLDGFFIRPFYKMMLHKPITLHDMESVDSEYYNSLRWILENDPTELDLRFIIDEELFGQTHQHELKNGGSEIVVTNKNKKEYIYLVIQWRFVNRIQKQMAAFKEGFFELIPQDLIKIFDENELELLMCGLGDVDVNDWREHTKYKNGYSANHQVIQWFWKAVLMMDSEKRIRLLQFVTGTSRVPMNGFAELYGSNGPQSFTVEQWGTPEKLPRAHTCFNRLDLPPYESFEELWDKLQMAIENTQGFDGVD
Under “ubiquitin chain formation AUC”, CCOC(=O)/C=C/CNCCCCN1c2ccccc2C(=O)N(C)c2ccc(Cl)cc21.O=C(O)/C=C\C(=O)O is recorded as 70400 a.u. and 69000 a.u. and 69500 a.u.
Under “ubiquitin chain formation AUC”, CN(C)C(=O)/C=C/CNCCCN1c2ccccc2CCc2ccc(Cl)cc21.Cl is recorded as 139000 a.u. and 140000 a.u. and 137000 a.u.
Under “ubiquitin chain formation AUC”, CCOC(=O)/C=C/CN(CCCCN1c2ccccc2CCc2ccc(Cl)cc21)C(C)C.O=C(O)/C=C\C(=O)O is recorded as 60100 a.u. and 59800 a.u. and 60900 a.u. and 59400 a.u. and 58500 a.u.
Under “ubiquitin chain formation AUC”, CCOC(=O)/C=C/CNCCCCN1c2cc(Cl)ccc2CCc2cnn(C)c21.O=C(O)/C=C\C(=O)O is recorded as 20200 a.u. and 7400 a.u. and 7610 a.u. and 8260 a.u. and 20600 a.u. and 20000 a.u.
COC(=O)CCCNCCCN1c2ccccc2CCc2ccc(Cl)cc21.COC(=O)CCCNCCCN1c2ccccc2CCc2ccc(Cl)cc21.O=C(O)/C=C/C(=O)O: “ubiquitin chain formation AUC” 129000 a.u. and 128000 a.u.
For CCOC(=O)/C=C/CN(CC)CCCCN1c2ccccc2CCc2ccc(Cl)cc21.O=C(O)/C=C\C(=O)O, “ubiquitin chain formation AUC” read 70900 a.u. and 58900 a.u. and 69500 a.u. and 59700 a.u. and 69900 a.u.
Under “ubiquitin chain formation AUC”, CNCCCN1c2ccccc2CCc2ccc(Cl)cc21 is recorded as 142000 a.u. and 140000 a.u. and 144000 a.u.
Under “ubiquitin chain formation AUC”, CCOC(=O)/C=C/CNCCCCN1c2ccccc2COc2ccc(Cl)cc21.O=C(O)/C=C\C(=O)O is recorded as 21700 a.u. and 40600 a.u. and 22700 a.u.
Cl.NC(=O)/C=C/CNCCCN1c2ccccc2CCc2ccc(Cl)cc21: “ubiquitin chain formation AUC” 137000 a.u. and 135000 a.u.

Sample 3 — effect on: kinase activity
Compound: CN(C1COC1)C(C)(C)/C=C(\C#N)C(=O)N1CCC[C@H]1Cn1nc(-c2ccc(Oc3ccccc3)cc2F)c2c(N)ncnc21
RPS6KA5: Ribosomal protein S6 kinase alpha-5 (RPS6KA5, Homo sapiens, UniProt O75582)
UniProt O75582, sequence (whole entry, looked up): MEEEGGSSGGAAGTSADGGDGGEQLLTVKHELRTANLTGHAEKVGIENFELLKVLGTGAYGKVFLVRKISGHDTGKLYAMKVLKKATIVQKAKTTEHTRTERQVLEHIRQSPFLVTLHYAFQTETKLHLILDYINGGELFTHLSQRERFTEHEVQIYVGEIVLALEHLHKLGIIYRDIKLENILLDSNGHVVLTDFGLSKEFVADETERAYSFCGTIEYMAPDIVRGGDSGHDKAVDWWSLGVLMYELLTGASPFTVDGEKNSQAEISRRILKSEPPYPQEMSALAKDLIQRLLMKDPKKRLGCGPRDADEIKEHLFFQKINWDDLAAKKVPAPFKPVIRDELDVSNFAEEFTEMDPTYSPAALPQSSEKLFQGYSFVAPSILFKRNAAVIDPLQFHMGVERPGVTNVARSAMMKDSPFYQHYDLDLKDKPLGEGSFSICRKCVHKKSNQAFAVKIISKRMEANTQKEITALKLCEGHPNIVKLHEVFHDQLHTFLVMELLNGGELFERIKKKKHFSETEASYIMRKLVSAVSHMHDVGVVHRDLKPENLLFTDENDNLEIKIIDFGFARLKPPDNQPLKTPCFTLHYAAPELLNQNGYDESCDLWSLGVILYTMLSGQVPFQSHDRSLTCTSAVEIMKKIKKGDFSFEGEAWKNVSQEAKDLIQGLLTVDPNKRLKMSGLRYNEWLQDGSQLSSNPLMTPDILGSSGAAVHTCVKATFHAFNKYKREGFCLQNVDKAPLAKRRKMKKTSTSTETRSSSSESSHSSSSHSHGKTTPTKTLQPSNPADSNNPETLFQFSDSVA
GRK7 (Homo sapiens, UniProt Q8WTQ7); 1 µM — inhibition: -10%.
For SIK1 (Homo sapiens, UniProt P57059); 0.1 µM: inhibition read 6%.
RAF1 (Homo sapiens, UniProt P04049); 0.1 µM — inhibition: -1%.
For ERBB4 (Homo sapiens, UniProt Q15303); 1 µM: inhibition read 95%.
EPHA3 (Homo sapiens, UniProt P29320); 0.1 µM — inhibition: 4%.
The inhibition was 3% (NUAK1 (Homo sapiens, UniProt O60285); 1 µM).
The inhibition was 3% (CAMK1 (Homo sapiens, UniProt Q14012); 0.1 µM).
FGR (Homo sapiens, UniProt P09769); 0.1 µM — inhibition: 31%.
For NEK6 (Homo sapiens, UniProt Q9HC98); 1 µM: inhibition read 0%.
For RPS6KA4 (Homo sapiens, UniProt O75676); 1 µM: inhibition read 0%.
It gave -7% for inhibition (PAK4 (Homo sapiens, UniProt O96013); 1 µM).
It gave 7% for inhibition (CSNK1G3 (Homo sapiens, UniProt Q9Y6M4); 0.1 µM).
For PTK6 (Homo sapiens, UniProt Q13882); 0.1 µM: inhibition read 24%.
For LTK (Homo sapiens, UniProt P29376); 1 µM: inhibition read 1%.
The inhibition was 47% (BLK (Homo sapiens, UniProt P51451); 0.1 µM).
RPS6KA5; 1 µM — inhibition: -1%.
RPS6KA5; 0.1 µM — inhibition: 5%.
The inhibition was 97% (BTK (Homo sapiens, UniProt Q06187); 0.1 µM).
For FGFR4 (Homo sapiens, UniProt P22455); 1 µM: inhibition read 3%.
It gave 4% for inhibition (BRSK1 (Homo sapiens, UniProt Q8TDC3); 0.1 µM).

Sample 4 — effect on: thermal unfolding; technique: differential scanning fluorimetry; tested at: 5.5 µM; direction: higher = more unfolded
Compound: C[C@@H]1CN(c2ccc(-c3cc(C(=O)NCCOCCOCCOCCOCCOCCOCCNC(=O)/C=C/c4[nH]cc(C(=O)N[C@@H](CC(N)=O)c5ccc(F)c(Cl)c5)c4-c4ccc(Cl)cc4F)ccc3F)cc2NC(=O)c2ccc(F)cc2C(F)(F)F)C[C@H](C)N1C
DCAF1: DDB1- and CUL4-associated factor 1 (DCAF1, Homo sapiens, UniProt Q9Y4B6)
UniProt Q9Y4B6, sequence (whole entry, looked up): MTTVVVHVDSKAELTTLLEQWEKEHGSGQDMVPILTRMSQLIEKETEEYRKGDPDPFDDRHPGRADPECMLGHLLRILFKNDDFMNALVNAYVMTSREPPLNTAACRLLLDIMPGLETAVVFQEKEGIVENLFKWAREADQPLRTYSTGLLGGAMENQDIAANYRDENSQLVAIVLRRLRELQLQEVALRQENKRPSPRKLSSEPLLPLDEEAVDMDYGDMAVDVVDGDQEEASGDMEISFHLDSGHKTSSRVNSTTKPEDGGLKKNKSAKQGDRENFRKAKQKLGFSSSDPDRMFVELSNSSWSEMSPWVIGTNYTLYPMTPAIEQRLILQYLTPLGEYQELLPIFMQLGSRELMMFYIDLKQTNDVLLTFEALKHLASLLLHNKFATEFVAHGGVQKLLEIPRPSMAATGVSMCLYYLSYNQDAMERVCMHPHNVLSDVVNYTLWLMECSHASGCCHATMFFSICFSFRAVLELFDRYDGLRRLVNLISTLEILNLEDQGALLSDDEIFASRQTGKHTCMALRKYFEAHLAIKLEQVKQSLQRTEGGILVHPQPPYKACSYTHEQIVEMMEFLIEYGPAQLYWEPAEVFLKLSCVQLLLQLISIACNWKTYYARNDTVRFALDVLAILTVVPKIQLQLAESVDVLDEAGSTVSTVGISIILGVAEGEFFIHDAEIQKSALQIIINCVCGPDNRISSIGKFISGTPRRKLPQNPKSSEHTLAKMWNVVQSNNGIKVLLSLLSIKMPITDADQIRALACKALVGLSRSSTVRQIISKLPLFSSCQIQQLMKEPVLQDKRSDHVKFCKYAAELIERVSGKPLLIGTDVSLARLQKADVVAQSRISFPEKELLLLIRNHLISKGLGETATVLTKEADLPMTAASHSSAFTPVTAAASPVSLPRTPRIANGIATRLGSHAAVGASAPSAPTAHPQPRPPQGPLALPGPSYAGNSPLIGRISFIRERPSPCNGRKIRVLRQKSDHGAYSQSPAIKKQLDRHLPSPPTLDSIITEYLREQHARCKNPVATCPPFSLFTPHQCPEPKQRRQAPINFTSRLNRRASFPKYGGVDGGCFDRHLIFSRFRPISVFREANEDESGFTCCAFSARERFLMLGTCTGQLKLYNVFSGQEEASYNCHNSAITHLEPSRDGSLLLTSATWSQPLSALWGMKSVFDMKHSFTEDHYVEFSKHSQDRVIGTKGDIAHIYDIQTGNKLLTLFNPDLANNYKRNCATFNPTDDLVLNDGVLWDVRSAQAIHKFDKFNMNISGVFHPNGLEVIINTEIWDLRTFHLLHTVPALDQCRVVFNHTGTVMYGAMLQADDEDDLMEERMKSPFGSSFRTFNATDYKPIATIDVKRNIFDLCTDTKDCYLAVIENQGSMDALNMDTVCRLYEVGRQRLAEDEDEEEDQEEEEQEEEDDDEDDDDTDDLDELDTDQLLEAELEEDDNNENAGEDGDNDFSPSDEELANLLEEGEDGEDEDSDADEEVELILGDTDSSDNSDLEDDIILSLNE
WDR5: WD repeat-containing protein 5 (WDR5, Homo sapiens, UniProt P61964)
DCAF1; 87.41 °C — “SYPRO Orange fluorescence”: 34200 a.u.
The “SYPRO Orange fluorescence” was 52400 a.u. (WDR5; 91.61 °C).
DCAF1; 27.8 °C — “SYPRO Orange fluorescence”: 7910 a.u.
For WDR5; 80.01 °C: “SYPRO Orange fluorescence” read 64700 a.u.
For WDR5; 37 °C: “SYPRO Orange fluorescence” read 13800 a.u.
DCAF1; 69.81 °C — “SYPRO Orange fluorescence”: 48500 a.u.
It gave 21200 a.u. for “SYPRO Orange fluorescence” (DCAF1; 52.41 °C).
For WDR5; 86.41 °C: “SYPRO Orange fluorescence” read 60100 a.u.
The “SYPRO Orange fluorescence” was 30400 a.u. (DCAF1; 56.01 °C).
For DCAF1; 45.6 °C: “SYPRO Orange fluorescence” read 14700 a.u.
The “SYPRO Orange fluorescence” was 10700 a.u. (DCAF1; 37 °C).
